Measurements of several laboratories.
“And” joins repeats or separate records; there may be more than shown. Numbers after ± are the reported error.

| SMILES | cell line | assay | system | setting | scale | quantity | value |
| --- | --- | --- | --- | --- | --- | --- | --- |
| CCCS(=O)(=O)Oc1ccc(C=NNC(=O)c2nc3ccccc3s2)cc1 | BJ-1 fibroblasts | MTT | – | 100 µM, 48 h | – | cytotoxicity | 52.6% |
| CC(=O)Nc1ccc(O)cc1 | MDCK | – | – | 1 µM, 90 min, pH 6.5 apical, 7.4 basolateral | – | Papp A to B | 8.62 ×10⁻⁶ cm/s and 7.66 ×10⁻⁶ cm/s |
| CC(=O)Nc1cccc(-n2c(=O)n(C3CC3)c(=O)c3c(Nc4ccc(I)cc4F)n(C)c(=O)c(C)c32)c1 | MeWo | resazurin | – | 50.00 nM, 72 h, unit not given | relative to: DMSO | viability | 0.548 and 0.522 |
| C[N+](C)(C)CCCC(=O)O.[Cl-] | HCT-8 infected with Cryptosporidium parvum | Hoechst nuclei count | – | 1 mM, 24 h | relative to: PBS | host cell number | 1.02 ± 0.082 |
| CCCC(CCC)NC(=O)c1ccc2c(c1)OCO2 | CHO-WBL | – | – | 0.021 mg/mL, 3 h, with rat liver S9 | relative to: vehicle control | relative cell growth | 100% |
| O=c1cc[nH]c(=O)[nH]1 | HCT-8 infected with Cryptosporidium parvum | Hoechst nuclei count | – | 1 mM, 24 h | relative to: PBS | host cell number | 0.992 ± 0.021 |
| CC(C)(c1ccc(O)cc1)c1ccc(O)cc1 | HepG2 spheroids, dissociated | annexin V-FITC/PI flow cytometry | – | 0.01 µM, 96 h | – | viable cells | 53.7 ± 2.99% |
| CCCCC(=O)O | HCT-8 infected with Cryptosporidium parvum | Hoechst nuclei count | – | 1 mM, 24 h | relative to: PBS | host cell number | 0.863 ± 0.066 |
| COc1ccc(Nc2cnnc3cc(-c4ccc(S(=O)(=O)N5CCN(C)CC5)cc4)ccc23)cc1Cl | B10R mouse macrophages | cytotoxicity | – | – | – | TC50 | > 10 µM |
| C/C=C(/C)C(=O)OC[C@H]1[C@@H](Cc2ccc(C(F)(F)F)cc2)CO[C@@H]1c1ccc(OC)c(OC)c1 | HEK293/NF-κB-luc | CellTracker Green CMFDA | – | 20 µM, 4.5 h, serum-free medium | relative to: stimulated untreated cells | viability | 84 ± 17% |
| CC(C)C[C@H](NC(=O)[C@H](CCCNC(=N)N)NC(=O)CNC(=O)CNC(=O)[C@H](CCCNC(=N)N)NC(=O)CNC(=O)CNC(=O)CNC(=O)c1ccc2c(c1)C(=O)OC21c2ccc(O)cc2Oc2cc(O)ccc21)C(=O)N[C@@H](CO)C(=O)N[C@@H](Cc1ccc(O)cc1)C(=O)N[C@@H](CO)C(=O)N[C@@H](CCCNC(=N)N)C(=O)N[C@@H](CCCNC(=N)N)C(=O)N[C@@H](CCCNC(=N)N)C(=O)N[C@@H](Cc1ccccc1)C(=O)N[C@@H](CO)C(=O)N[C@H](C(=O)N[C@@H](CO)C(=O)N[C@H](C(=O)NCC(=O)N[C@@H](CCCNC(=N)N)C(N)=O)[C@@H](C)O)[C@@H](C)O | hCMEC/D3 monolayers | BBB permeability, Transwell, refers to: CF-labelled compound | EGM-2 medium | concentration not given, 3 h, apical to basal | relative to: fluorescence added apically | transport ratio | 14.6% |
| CCCS(=O)(=O)Oc1cc(C=NNC(=O)c2nc3ccccc3s2)ccc1OC | BJ-1 fibroblasts | MTT | – | 100 µM, 48 h | – | cytotoxicity | 35% |
| C=C1C(=O)O[C@@H]2[C@@H]3C4(C=C[C@@]3(C)C3(C4)C(=O)O[C@@H]4[C@H]5C(C)=CC(=O)C5=C(C)C[C@H](O)[C@H]43)[C@@](C)(OC(C)=O)CC[C@@H]12 (stereo partly drawn) | AML12 mouse hepatocytes | MTT | – | 24 h, 10% FBS | – | maximum safe concentration | 40 µM |
| COc1ccc(Nc2cnnc3cc(-c4cnc(N5CCN(C)CC5)nc4)ccc23)cc1Cl | B10R mouse macrophages | cytotoxicity | – | – | – | TC50 | > 10 µM |
| Cc1cnc(Nc2ccc(OCCN3CCCC3)cc2)nc1Nc1cccc(S(=O)(=O)NC(C)(C)C)c1 | MDCK | – | – | 1 µM, 90 min, pH 7.4 apical, 7.4 basolateral | – | Papp A to B | 1.27 ×10⁻⁶ cm/s and 1 ×10⁻⁶ cm/s |
| O=C(CS(=O)(=O)O)Nc1nc2ccccc2s1 | MDCK-MDR1 | – | – | MDR1 inhibited | – | Papp | 0.006 ×10⁻⁶ cm/s |
| CCc1c(-c2ccccc2)c(-c2ccccc2)nn1-c1ccccc1-c1cccc(OCC(=O)O)c1 | mouse bone marrow macrophages | CCK-8 | – | 1 µM, 4000 cells | relative to: untreated | viability | 90.9% and 83.8% and 88.7% and 93.7% and 85.2% and 86.3% |
| NCCCC(=O)O | HCT-8 infected with Cryptosporidium parvum | Hoechst nuclei count | – | 1 mM, 24 h | relative to: PBS | host cell number | 0.975 ± 0.052 |

| SMILES | cell line | assay | system | setting | scale | quantity | value |
| --- | --- | --- | --- | --- | --- | --- | --- |
| Cn1cc2c(C(=O)O)ccc(NS(=O)(=O)c3ccc(Cl)c(Cl)c3)c2n1 | RRCK cells | passive permeability | – | – | – | apparent permeability | 5.3 ×10⁻⁶ cm/s |
| COc1cc2ncnc(Nc3ccc(Oc4ccccc4)cc3C)c2cc1OC.O=C(O)C(F)(F)F | A-375 (BRAF V600E) | – | – | 0.1 µM, 72 h | – | viability | 1.11 fraction of control and 0.877 fraction of control |
| Cc1noc(C)c1Cn1cc(N2C(=O)CN(Cc3cccc(O)c3)C2=O)cn1 | human blood lymphocytes | – | – | 494.3 µg/mL, 3 h | – | aberrant cells with gaps | 1.5% |
| CC(C)n1nccc1-c1ncccc1COc1cccc(O)c1C=O | MDCK | – | – | 1 µM, 90 min, pH 6.5 apical, 7.4 basolateral, basolateral to apical | – | mass recovery | 88 ± 7% |
| C[C@H]1[C@H](OC(=O)CCC(=O)O)O[C@@H]2O[C@@]3(C)CC[C@H]4[C@H](C)CC[C@@H]1[C@@]24OO3 | human iPSC-derived cardiomyocytes | cell viability | – | 72 h | – | highest non-toxic concentration | > 10 µM |
| NCCCCC(=O)O | HCT-8 infected with Cryptosporidium parvum | Hoechst nuclei count | – | 1 mM, 24 h | relative to: PBS | host cell number | 0.987 ± 0.056 |
| O=C(NCc1cc(O)c(O)c(Br)c1)c1cccc(CCl)c1 | Vero-E6 | CCK-8 | – | 24 h | – | CC50 | 72.5 ± 14.4 µM |
| CN(C)CC(=O)O | HCT-8 infected with Cryptosporidium parvum | Hoechst nuclei count | – | 1 mM, 24 h | relative to: PBS | host cell number | 0.995 ± 0.073 |
| CC1=CC[C@H]2[C@@H]([C@@H]1CC[C@H]1[C@]3(C)CC[C@H](O)C(C)(C)O[C@H]3CC[C@]1(C)O)C(C)(C)CC[C@]2(C)O | KB-V1 (P-gp overexpressing) | cell viability, MTT | DMEM with 10% bovine serum | 72 h | – | IC50 | > 50 µM |
| C[C@@H](c1ncncc1F)[C@](O)(Cn1cncn1)c1ccc(F)cc1F | MDCK | – | – | 1 µM, 90 min, pH 6.5 apical, 7.4 basolateral, basolateral to apical | – | mass recovery | 96 ± 7% |
| CCS(=O)(=O)Oc1ccc(C=NNC(=O)c2nc3ccccc3s2)cc1 | BJ-1 fibroblasts | MTT | – | 100 µM, 48 h | – | cytotoxicity | 49.5% |
| Cc1cccc(C(=O)O)c1 | HCT-8 infected with Cryptosporidium parvum | Hoechst nuclei count | – | 1 mM, 24 h | relative to: PBS | host cell number | 0.982 ± 0.048 |
| CCn1c(=O)c2c(nc(/C=C/c3ccc(OC)c(OC)c3)n2C)n(CC)c1=O | MDCK | permeability basolateral to apical | – | 1 µM, 90 min, pH 6.5 apical to 7.4 basolateral | – | Papp | 31.2 ×10⁻⁶ cm/s and 40.6 ×10⁻⁶ cm/s |
| O=S(=O)(NC1CCN(c2ncnc3c2nc(-c2ccccc2Cl)n3-c2ccc(Cl)cc2)CC1)c1ccc(F)c(F)c1 | MDCK-MDR1 | – | – | 10 µM, 1 h, pH 7.4, 37 °C | – | permeability A to B | < 0.1% |
| Cc1cc(C(=O)NC(C)(C)COc2cccc3c2C(N)=NS(=O)(=O)N3)cc(C)n1 | human peripheral blood lymphocytes | CBPI, concurrent micronucleus test | – | 500 µg/mL, 4 h | relative to: vehicle control | cytotoxicity | -1% |
| C/C=C(/C)C(=O)OC[C@H]1[C@@H](Cc2ccc(C(F)(F)F)cc2)CO[C@@H]1c1ccc(F)cc1 | HEK293/NF-κB-luc | CellTracker Green CMFDA | – | 20 µM, 4.5 h, serum-free medium | relative to: stimulated untreated cells | viability | 90 ± 22% |
| CC(C)NCC(O)COc1cccc2ccccc12 (stereo not drawn) | MDCK-MDR1 cells | – | – | 5 µM, pH 7.4 | – | Papp B to A | 49 ×10⁻⁶ cm/s |
| O=C(O)CCCOc1ccc(F)cc1-c1cc(-c2ccccc2C(F)(F)F)n(-c2ccccc2)n1 | human iPSC-derived cardiomyocytes | – | – | 20 µM | – | beat rate | 45.9 ± 1.5 min⁻¹ |

Repeated from above:
| SMILES | cell line | assay | system | setting | scale | quantity | value |
| --- | --- | --- | --- | --- | --- | --- | --- |
| CN(C)CC(=O)O | HCT-8 infected with Cryptosporidium parvum | Hoechst nuclei count | – | 1 mM, 24 h | relative to: PBS | host cell number | 0.995 ± 0.073 |
| CC(C)n1nccc1-c1ncccc1COc1cccc(O)c1C=O | MDCK | – | – | 1 µM, 90 min, pH 6.5 apical, 7.4 basolateral, basolateral to apical | – | mass recovery | 88 ± 7% |
| CCCS(=O)(=O)Oc1ccc(C=NNC(=O)c2nc3ccccc3s2)cc1 | BJ-1 fibroblasts | MTT | – | 100 µM, 48 h | – | cytotoxicity | 52.6% |
| CCCCC(=O)O | HCT-8 infected with Cryptosporidium parvum | Hoechst nuclei count | – | 1 mM, 24 h | relative to: PBS | host cell number | 0.863 ± 0.066 |
